Measurements gathered from unrelated publications.
Compare with care: the assays were run in different laboratories. Numbers after ± are the reported error.
CYP2C8: Cytochrome P450 2C8 (CYP2C8, Homo sapiens, UniProt P10632)
Sequence of UniProt P10632 (whole entry, looked up): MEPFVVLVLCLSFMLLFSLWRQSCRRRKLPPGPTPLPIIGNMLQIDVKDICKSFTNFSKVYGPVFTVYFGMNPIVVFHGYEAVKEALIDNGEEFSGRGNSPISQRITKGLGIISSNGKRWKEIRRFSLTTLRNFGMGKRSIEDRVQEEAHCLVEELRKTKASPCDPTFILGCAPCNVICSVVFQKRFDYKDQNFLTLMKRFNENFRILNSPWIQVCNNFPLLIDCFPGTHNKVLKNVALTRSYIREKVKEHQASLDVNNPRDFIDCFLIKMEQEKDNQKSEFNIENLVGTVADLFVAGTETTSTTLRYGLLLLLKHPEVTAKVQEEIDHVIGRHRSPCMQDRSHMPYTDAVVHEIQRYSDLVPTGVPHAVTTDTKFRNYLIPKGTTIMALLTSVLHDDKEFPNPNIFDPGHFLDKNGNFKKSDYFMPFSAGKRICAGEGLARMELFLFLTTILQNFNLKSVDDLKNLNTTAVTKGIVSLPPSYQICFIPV
Sequence of UniProt P04798 (whole entry, looked up): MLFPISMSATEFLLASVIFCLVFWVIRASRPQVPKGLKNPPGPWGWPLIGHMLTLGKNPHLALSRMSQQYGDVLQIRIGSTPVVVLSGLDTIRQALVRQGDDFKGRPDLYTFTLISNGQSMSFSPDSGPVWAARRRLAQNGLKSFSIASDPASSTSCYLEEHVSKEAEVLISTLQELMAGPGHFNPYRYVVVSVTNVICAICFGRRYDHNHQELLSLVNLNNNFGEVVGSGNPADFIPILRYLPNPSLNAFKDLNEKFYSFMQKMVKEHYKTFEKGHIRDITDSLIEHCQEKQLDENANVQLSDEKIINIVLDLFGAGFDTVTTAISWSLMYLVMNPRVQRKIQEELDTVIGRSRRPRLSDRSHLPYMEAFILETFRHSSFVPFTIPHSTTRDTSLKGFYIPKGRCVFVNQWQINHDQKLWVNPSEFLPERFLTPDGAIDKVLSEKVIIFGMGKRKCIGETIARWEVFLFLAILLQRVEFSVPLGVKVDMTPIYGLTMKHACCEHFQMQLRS
Sequence of UniProt P08922 (whole entry, unmodified, looked up): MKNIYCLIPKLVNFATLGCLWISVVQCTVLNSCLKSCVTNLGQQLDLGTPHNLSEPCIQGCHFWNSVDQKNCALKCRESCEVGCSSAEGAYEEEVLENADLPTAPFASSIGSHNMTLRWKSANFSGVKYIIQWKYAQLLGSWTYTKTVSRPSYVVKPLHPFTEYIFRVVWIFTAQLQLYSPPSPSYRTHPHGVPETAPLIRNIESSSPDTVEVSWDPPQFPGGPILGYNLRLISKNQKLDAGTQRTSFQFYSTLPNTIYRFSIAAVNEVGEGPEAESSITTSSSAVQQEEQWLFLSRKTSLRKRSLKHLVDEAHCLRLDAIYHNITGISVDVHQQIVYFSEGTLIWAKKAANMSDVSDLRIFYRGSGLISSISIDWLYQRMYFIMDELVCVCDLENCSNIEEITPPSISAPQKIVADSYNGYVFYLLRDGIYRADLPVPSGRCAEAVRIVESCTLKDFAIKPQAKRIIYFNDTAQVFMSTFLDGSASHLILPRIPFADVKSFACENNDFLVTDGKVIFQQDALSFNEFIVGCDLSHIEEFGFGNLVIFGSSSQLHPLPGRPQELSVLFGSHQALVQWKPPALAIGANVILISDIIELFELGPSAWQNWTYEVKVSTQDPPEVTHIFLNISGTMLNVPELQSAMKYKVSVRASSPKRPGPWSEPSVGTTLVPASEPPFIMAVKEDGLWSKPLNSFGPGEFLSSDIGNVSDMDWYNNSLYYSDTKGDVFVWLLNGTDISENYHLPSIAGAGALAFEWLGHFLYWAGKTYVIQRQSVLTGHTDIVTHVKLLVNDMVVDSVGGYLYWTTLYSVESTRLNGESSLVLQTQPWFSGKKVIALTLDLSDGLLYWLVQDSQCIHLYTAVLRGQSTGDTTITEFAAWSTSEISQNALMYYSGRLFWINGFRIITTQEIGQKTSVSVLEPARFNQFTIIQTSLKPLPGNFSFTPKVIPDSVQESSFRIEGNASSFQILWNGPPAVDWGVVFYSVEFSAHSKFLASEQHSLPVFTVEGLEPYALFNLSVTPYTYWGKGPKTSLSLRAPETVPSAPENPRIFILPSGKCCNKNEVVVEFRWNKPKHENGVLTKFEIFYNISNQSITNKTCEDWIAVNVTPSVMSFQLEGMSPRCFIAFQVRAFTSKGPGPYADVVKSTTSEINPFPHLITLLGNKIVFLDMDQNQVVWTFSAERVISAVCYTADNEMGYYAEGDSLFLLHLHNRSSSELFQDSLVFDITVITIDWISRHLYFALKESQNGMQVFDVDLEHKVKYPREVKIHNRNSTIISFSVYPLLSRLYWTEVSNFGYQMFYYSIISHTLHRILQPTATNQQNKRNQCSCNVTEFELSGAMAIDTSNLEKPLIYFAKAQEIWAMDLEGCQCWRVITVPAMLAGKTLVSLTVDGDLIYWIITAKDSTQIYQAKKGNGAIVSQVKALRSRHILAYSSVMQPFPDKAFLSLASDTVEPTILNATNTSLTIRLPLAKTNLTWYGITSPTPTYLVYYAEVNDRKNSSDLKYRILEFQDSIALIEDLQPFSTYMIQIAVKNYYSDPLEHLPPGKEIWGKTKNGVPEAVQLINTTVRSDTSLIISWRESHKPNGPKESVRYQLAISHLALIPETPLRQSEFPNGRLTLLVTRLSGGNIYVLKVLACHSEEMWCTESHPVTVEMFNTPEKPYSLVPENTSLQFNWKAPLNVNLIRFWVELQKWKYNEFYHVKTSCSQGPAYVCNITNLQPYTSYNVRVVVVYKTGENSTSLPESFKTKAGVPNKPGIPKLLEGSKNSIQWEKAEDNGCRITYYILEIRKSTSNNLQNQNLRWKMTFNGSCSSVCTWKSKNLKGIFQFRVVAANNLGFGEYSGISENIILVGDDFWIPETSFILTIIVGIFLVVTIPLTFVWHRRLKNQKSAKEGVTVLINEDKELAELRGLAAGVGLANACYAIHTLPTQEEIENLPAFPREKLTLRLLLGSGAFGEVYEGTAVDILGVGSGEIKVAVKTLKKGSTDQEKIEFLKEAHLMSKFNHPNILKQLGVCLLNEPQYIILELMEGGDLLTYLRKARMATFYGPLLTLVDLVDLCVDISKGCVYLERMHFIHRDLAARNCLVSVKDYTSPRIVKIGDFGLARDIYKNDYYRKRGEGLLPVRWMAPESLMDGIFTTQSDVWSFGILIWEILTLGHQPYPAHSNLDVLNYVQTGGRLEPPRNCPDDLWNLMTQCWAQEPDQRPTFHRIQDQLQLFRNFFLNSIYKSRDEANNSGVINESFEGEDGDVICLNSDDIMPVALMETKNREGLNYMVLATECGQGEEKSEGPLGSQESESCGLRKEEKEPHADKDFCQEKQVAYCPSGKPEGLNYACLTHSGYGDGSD
Sequence of UniProt Q9HAW7 (whole entry, looked up): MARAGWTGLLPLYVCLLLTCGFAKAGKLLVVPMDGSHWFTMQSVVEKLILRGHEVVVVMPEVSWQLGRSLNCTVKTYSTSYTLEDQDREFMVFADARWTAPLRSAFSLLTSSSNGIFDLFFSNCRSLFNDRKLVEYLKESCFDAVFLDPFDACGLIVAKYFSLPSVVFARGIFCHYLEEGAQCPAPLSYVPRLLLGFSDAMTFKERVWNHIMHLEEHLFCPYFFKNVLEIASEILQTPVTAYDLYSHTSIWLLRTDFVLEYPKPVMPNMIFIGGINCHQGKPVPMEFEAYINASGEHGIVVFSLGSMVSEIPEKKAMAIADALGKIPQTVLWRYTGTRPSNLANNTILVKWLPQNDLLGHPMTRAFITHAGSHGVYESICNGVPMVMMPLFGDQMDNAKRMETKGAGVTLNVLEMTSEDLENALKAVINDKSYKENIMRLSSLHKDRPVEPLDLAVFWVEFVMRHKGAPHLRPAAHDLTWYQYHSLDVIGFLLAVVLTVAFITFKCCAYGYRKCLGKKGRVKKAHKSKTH
Sequence of UniProt Q9UNU6 (whole entry, looked up): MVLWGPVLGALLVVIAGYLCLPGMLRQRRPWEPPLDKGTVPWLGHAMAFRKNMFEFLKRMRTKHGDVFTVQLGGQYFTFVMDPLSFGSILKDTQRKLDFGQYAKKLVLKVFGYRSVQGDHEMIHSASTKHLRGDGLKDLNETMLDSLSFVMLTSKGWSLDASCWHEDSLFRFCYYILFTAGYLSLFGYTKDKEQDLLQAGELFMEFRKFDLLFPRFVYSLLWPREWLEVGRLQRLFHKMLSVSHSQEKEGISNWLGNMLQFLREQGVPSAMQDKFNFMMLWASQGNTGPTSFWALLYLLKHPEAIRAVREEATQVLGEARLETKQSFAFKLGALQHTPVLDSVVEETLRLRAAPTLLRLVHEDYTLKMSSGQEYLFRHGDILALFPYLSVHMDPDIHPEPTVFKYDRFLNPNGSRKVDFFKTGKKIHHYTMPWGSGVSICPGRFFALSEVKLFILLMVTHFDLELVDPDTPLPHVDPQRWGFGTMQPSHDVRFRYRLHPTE
Sequence of UniProt P04233 (whole entry, unmodified, looked up): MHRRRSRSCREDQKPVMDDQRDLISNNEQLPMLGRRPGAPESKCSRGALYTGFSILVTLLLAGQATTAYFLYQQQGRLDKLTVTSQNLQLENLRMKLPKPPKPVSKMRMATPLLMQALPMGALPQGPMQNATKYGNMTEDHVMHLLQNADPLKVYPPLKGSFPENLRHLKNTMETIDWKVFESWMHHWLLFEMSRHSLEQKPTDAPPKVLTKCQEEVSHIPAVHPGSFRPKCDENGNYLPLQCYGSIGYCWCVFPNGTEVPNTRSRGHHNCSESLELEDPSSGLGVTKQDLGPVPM

CC[C@H](C)[C@H](NC(=O)[C@H](CCCCN)NC(=O)[C@H](CC(C)C)NC(=O)[C@H](Cc1ccccc1)NC(=O)[C@@H](NC(=O)[C@H](CC(N)=O)NC(=O)[C@H](CCCNC(=N)N)NC(=O)[C@H](CO)NC(=O)[C@@H](N)CC(=O)O)[C@@H](C)CC)C(=O)N[C@@H](CCCCN)C(=O)N[C@@H](Cc1ccccc1)C(=O)N[C@@H](CCCCN)C(=O)N[C@@H](CCCCN)C(=O)N[C@@H](CCCCN)C(=O)O
half-life (trypsin; stability; 0.33 mM, pH 7.4): 3 h

CCOc1cc(CC(=O)N[C@@H](CC(C)C)c2ccccc2N2CCCCC2)ccc1C(=O)O
geometric mean Cmax (CYP2C8; substrate; human, plasma; 0.5 mg, day 1): 7.34 ng/mL

CC(C)Cn1cnc2c(N)nc3ccccc3c21
remaining compound (Cytochrome P450 1A1 (CYP1A1, Homo sapiens, UniProt P04798); substrate, LC-MS; recombinant microsomes; 0.5 µM, 15 min, pH 7.4, 37 °C; baseline: control): ~17%

Cn1cc(-c2ccc(-c3cncc(Cl)c3N3CCC4(CCNC4=O)CC3)cc2)cn1
log2 fold change (COLO 205; gene expression, microarray, measured: TGFB3 mRNA; concentration not given, 2 h; baseline: untreated cells): 1.38

CC(C)CCC[C@@H](C)[C@H]1CC[C@H]2[C@@H]3[C@H](O)CC4=CC(=O)CC[C@]4(C)[C@H]3CC[C@]12C
maximal absorbance change (7-alpha-hydroxycholest-4-en-3-one 12-alpha-hydroxylase (Homo sapiens, UniProt Q9UNU6); binding, Soret peak shift): 0.0076

C[C@@H](c1ncncc1F)[C@](O)(Cn1cncn1)c1ccc(F)cc1F
IC50 (lenvatinib metabolism; inhibitor; human liver microsomes; 30 min, pH 7.4, added: lenvatinib substrate): 1.93 µM

Cc1cc(Nc2ccc(S(F)(F)(F)(F)F)cc2)n2nc(C(C)(F)F)nc2n1
patients with QTcF above threshold (Plasmodium vivax; 12-lead Holter ECG; human malaria patients; oral, 400 mg, QTc above 500 ms): 0%

CC[C@H](C)[C@H](NC(=O)[C@H](Cc1ccc(O)cc1)NC(=O)[C@@H](NC(=O)[C@@H](N)CCCN=C(N)N)C(C)C)C(=O)N[C@@H](Cc1c[nH]cn1)C(=O)N1CCC[C@H]1C(=O)N[C@@H](Cc1ccccc1)C(=O)O
proteolytic conversion (trypsin; LC-MS; 20 µM, 30 min, pH 7.4, 25 °C): 57.6 ± 3.2%

CC[C@H]1CN2CCc3cc(OC)c(OC)cc3[C@@H]2C[C@@H]1C[C@H]1NCCc2cc(OC)c(OC)cc21
EC90 (Toxoplasma gondii; parasite growth; HFF, bradyzoite, alkaline-induced): 2.5 µM

CC1(C)CCC2(CC1)N[C@@H](C(=O)N[C@@H]1CC[C@@H](C(N)=O)OC1)[C@H](c1ccnc(Cl)c1F)[C@]21C(=O)Nc2cc(Cl)ccc21
Papp B to A (ABCB1 (Homo sapiens, UniProt P08183); Caco-2 monolayers; 10 µM, 120 min, no inhibitor): 17.3 ×10⁻⁶ cm/s

CCc1nc(N)nc(N)c1-c1ccc(Cl)cc1
Ki (MATE1/MATE2-K; inhibitor): 0.0344 µM

Cc1cc(Nc2ncnc3ccc(NC4=NC(C)(C)CO4)cc23)ccc1Oc1ccn2ncnc2c1
geometric mean AUC(0-inf) (CYP2C8; substrate; human, plasma; oral, 300 mg single dose, day 1): 2480 ng·h/mL

CC[C@@H]([C@H](C)O)n1ncn(-c2ccc(N3CCN(c4ccc(OC[C@@H]5CO[C@@](Cn6cncn6)(c6ccc(F)cc6F)C5)cc4)CC3)cc2)c1=O
IC50 (lenvatinib metabolism; inhibitor; human liver microsomes; 30 min, pH 7.4, added: lenvatinib substrate): 1.83 µM

CCc1nc(N)nc(N)c1-c1ccc(Cl)cc1
Ki (human MATE1/MATE2-K; inhibitor, measured: N1-methylnicotinamide renal clearance; human, plasma; oral, from plasma Cmax): 2.19 ± 1.17 µM

CCn1ncc2c1-c1cnc(N)c(c1)O[C@H](C)c1cc(F)ccc1-c1nn(C)nc1C2
body weight gain (CD74-ROS1 (CD74/ROS1, Homo sapiens, UniProt P04233+P08922, G2032R); Balb/c nude mice, intracranial CD74-ROS1 xenograft; 3 mg/kg twice daily, mean): 5%

CC(C)C[C@H](NC(=O)C[C@H](O)[C@H](CC(C)C)NC(=O)[C@H](Cc1c[nH]cn1)NC(=O)CNC(=O)[C@@H](NC(=O)[C@H](C)NC(=O)[C@H](Cc1c[nH]c2ccccc12)NC(=O)[C@H](CCC(N)=O)NC(=O)[C@@H](Cc1ccccc1)NC(=O)COCCOCCNC(=O)CCC(C(=O)O)N1CCN(CC(=O)O)CCN(CC(=O)O)CCN(CC(=O)O)CC1)C(C)C)C(N)=O (some centres unmarked) [lutetium-177 labelled]
tissue uptake (BALB/c nu/nu mice, lung; intravenous, 100 pmol, 1 h, added: PA 300 µg): 0.54 ± 0.09 %ID/g

CC(C)=CCc1cc2c(cc1O)O[C@H](c1ccc(O)cc1)CC2=O
CLint (UGT1A7 (Homo sapiens, UniProt Q9HAW7); glucuronidation, substrate; recombinant enzyme; pH 7.4): 536 µL/min/mg

Cc1cc(Nc2ncnc3ccc(NC4=NC(C)(CO)CO4)cc23)ccc1Oc1ccn2ncnc2c1 (centres unmarked)
Cmax (CYP2C8; human, plasma; oral, 300 mg tucatinib single dose, day 1, arithmetic mean): 55.4 ng/mL

CC[C@H]1[C@@H](O)[C@@H]2[C@H](CC[C@]3(C)[C@@H]([C@H](C)CCNC(=O)NS(=O)(=O)c4ccc(C(C)(C)C)cc4)CC[C@@H]23)[C@@]2(C)CC[C@@H](O)C[C@@H]12
Cmax mean (Cytochrome P450 3A4 (CYP3A4, Homo sapiens, UniProt P08684); human, plasma; dose not given, added: fluconazole): 60.1 ng/mL

Cc1cc(CN)cc(C)c1NC(=O)c1ccc(-c2cc(Cl)ccc2Cl)o1
EC90 (Toxoplasma gondii; parasite growth; HFF, bradyzoite, alkaline-induced): 13300 µM

Cc1oc2ccccc2c1Cc1cc(I)c(OCC(=O)O)c(I)c1
activation V1/2 shift (KCNH2 (Homo sapiens, UniProt Q12809); potassium current, patch clamp; SH-SY5Y endogenous hERG; 10 µM; baseline: control): -13 ± 2.5 mV

C[C@@H](c1nc(-c2ccc(C#N)cc2)cs1)[C@](O)(Cn1cncn1)c1cc(F)ccc1F
IC50 (lenvatinib metabolism; inhibitor; rat liver microsomes; 30 min, pH 7.4, added: lenvatinib substrate): 0.355 µM

CNC(=O)c1ccc(-c2cnc3ncc(Cc4ccc5ncccc5c4)n3n2)cc1F
dry mouth incidence (all grades) (CTCAE v4.0, any causality; human gastric cancer patients; oral, 600 mg twice daily, expansion cohort at RP2D): 11%

Excerpt of the above:
CCOc1cc(CC(=O)N[C@@H](CC(C)C)c2ccccc2N2CCCCC2)ccc1C(=O)O
geometric mean Cmax (CYP2C8; substrate; human, plasma; 0.5 mg, day 1): 7.34 ng/mL

Cn1cc(-c2ccc(-c3cncc(Cl)c3N3CCC4(CCNC4=O)CC3)cc2)cn1
log2 fold change (COLO 205; gene expression, microarray, measured: TGFB3 mRNA; concentration not given, 2 h; baseline: untreated cells): 1.38

CC(C)CCC[C@@H](C)[C@H]1CC[C@H]2[C@@H]3[C@H](O)CC4=CC(=O)CC[C@]4(C)[C@H]3CC[C@]12C
maximal absorbance change (7-alpha-hydroxycholest-4-en-3-one 12-alpha-hydroxylase (Homo sapiens, UniProt Q9UNU6); binding, Soret peak shift): 0.0076
